Assay results gathered from unrelated publications.
Parts stem from different laboratories: compare values within a part only. Changes are numbered by the printed parent chain.

Block 1 — method: protein-binding microarray; form: double-stranded DNA, one strand shown; matrix: in vitro; concentration: not given; reading: higher = stronger binding
Target: Protein C-ets-1 (ETS1, Homo sapiens, UniProt P14921, residues 1-441, Y397A, full length assumed)
Notes: k-mer, scored over probes, only values ≥0.25
Construct (chain): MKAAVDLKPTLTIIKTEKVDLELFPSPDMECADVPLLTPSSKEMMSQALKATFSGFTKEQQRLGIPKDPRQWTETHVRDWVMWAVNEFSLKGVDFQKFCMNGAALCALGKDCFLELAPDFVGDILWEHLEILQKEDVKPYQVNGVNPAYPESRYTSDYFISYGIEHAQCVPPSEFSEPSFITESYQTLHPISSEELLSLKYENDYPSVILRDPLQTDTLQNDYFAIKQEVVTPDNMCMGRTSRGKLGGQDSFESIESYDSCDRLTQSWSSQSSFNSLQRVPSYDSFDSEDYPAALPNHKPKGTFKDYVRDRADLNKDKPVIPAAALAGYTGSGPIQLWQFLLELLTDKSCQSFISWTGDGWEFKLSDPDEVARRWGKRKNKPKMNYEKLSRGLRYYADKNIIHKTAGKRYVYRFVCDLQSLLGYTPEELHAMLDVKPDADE
`AACTTCCG` gave an E-score of 0.473.
For `CATCCGGA`, the E-score was 0.269.
With `AATTGCCA` the E-score was 0.353.
The E-score of `CAAAACGC` is reported as 0.323.
The E-score of `CTGTTGCA` is reported as 0.261.
`AGTTCCGG` gave an E-score of 0.281.
`ATTGCAAT` has an E-score of 0.333.
The E-score of `ACAAAAGC` is reported as 0.311.

Block 2 — method: RNAcompete; form: RNA; matrix: in vitro; concentration: 20 nM; notes: 7-mer, probes averaged, single round; baseline: mean of 7-mers; reading: higher = stronger binding
Target: PABPC1L2, full length, GST fusion (mouse, UniProt A0ABA7IW68)
Residues (chain): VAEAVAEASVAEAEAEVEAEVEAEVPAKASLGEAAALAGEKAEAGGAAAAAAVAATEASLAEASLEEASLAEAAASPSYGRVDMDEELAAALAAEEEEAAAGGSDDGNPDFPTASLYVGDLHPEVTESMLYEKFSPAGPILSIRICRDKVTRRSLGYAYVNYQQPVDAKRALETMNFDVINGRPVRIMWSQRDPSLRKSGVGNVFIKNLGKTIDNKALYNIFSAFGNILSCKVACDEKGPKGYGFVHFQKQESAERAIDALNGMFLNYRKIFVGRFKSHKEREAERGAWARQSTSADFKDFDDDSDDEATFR
For `GAGAGAG`, the 7-mer Z-score was 0.171.
The 7-mer Z-score of `AGCUAUG` is reported as -0.0446.
For `UAAUGUC`, the 7-mer Z-score was -0.24.
With `GUUGUUA` the 7-mer Z-score was -0.246.
With `CAAAGCA` the 7-mer Z-score was 0.0678.
`UCGAUUC` gave a 7-mer Z-score of -0.298.
With `GGCCGUC` the 7-mer Z-score was -0.171.
The 7-mer Z-score of `AACCCCU` is reported as -0.213.

Further values, each from its own experiment
P1: PafA, mature enzyme, eGFP fusion (Elizabethkingia meningoseptica, UniProt Q9KJX5); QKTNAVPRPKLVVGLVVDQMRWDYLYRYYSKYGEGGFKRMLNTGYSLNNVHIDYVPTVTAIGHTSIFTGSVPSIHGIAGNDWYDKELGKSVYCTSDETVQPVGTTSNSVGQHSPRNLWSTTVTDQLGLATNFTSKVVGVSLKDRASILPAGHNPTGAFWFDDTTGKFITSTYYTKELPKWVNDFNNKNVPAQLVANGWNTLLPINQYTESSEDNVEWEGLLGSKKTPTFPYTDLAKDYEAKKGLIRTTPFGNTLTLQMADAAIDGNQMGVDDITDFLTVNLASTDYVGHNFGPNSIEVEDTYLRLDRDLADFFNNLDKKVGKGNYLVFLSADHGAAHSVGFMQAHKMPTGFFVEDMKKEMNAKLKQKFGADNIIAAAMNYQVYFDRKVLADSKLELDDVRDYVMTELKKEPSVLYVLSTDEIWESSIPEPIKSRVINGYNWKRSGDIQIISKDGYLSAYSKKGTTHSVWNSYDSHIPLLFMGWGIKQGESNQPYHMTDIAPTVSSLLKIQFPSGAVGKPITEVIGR
With `PhoQ, residues 284 288 289 292 302 303 TTCLQL` the fold induction was 2.04 (PhoP, residues 12 14 15 18 19 NHTVL (Escherichia coli, UniProt P23836); Sort-seq, item: YFP reporter; E. coli; PhoQ-PhoP variant library, together with: 10 µM Mg2+; baseline: high Mg2+ state, higher = stronger signaling).
For `RAB8A (Homo sapiens, UniProt P61006)`, interaction screen read “cross-linked” (RAB8B (Homo sapiens, UniProt Q92930); cross-linking MS; hits only).
`P1 T155G`: “oxyanion analog dissociation constant” 2.07 µM (tungstate, free oxyanion; microfluidic competitive inhibition; in vitro, cell-free expressed; not given, derived from inhibition constants, unchanged parent 2230 nM; lower = stronger binding).

For quick reference, copied from above (block 1):
The E-score of `CTGTTGCA` is reported as 0.261.
`AGTTCCGG` gave an E-score of 0.281.
